{"data": "Published values collected from several papers", "Slc6a4": "Sodium-dependent serotonin transporter (Slc6a4, Rattus norvegicus, UniProt P31652)", "PIK3CA": "Phosphatidylinositol 4,5-bisphosphate 3-kinase catalytic subunit alpha isoform (PIK3CA, Homo sapiens, UniProt P42336)", "SIGMAR1": "Sigma non-opioid intracellular receptor 1 (SIGMAR1, Homo sapiens, UniProt Q99720)", "note": "Lines come from different studies, so protocols differ. ± marks the error that the study gave.", "UniProt P42336, sequence (whole entry, looked up)": "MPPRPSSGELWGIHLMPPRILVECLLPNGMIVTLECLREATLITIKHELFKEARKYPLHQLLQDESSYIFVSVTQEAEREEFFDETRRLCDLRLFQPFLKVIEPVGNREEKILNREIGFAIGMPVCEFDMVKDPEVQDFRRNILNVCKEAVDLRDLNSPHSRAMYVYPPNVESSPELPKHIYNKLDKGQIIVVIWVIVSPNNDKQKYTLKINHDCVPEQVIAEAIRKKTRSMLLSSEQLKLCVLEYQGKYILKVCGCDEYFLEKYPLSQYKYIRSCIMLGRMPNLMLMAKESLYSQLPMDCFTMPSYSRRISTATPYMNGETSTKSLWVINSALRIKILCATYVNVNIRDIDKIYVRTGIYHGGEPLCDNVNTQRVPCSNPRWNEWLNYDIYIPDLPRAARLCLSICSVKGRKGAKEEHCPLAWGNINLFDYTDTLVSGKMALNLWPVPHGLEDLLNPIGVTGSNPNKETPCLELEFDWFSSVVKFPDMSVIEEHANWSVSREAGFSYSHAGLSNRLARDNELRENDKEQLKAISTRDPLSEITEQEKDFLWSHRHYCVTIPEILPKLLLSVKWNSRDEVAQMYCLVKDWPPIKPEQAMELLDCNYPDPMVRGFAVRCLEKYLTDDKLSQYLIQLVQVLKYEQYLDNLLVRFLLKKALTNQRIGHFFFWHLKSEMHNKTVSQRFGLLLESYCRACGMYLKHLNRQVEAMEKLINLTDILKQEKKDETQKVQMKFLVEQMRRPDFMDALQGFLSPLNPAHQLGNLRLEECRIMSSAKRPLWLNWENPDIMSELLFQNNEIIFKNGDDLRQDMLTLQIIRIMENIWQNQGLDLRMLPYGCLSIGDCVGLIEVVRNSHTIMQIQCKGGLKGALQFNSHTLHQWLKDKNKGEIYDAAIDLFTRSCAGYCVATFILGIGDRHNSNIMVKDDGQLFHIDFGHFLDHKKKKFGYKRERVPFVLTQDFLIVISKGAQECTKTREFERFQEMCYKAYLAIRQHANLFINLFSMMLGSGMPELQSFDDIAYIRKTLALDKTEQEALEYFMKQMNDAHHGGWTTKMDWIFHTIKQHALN", "UniProt Q99720, sequence (whole entry, looked up)": "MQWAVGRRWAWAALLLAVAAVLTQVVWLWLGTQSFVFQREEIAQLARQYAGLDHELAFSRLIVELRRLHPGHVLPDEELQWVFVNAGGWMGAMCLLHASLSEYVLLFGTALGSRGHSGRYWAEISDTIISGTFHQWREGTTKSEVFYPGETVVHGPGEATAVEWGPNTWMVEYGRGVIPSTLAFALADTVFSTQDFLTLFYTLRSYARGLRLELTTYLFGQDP", "UniProt P31652, sequence (whole entry, looked up)": "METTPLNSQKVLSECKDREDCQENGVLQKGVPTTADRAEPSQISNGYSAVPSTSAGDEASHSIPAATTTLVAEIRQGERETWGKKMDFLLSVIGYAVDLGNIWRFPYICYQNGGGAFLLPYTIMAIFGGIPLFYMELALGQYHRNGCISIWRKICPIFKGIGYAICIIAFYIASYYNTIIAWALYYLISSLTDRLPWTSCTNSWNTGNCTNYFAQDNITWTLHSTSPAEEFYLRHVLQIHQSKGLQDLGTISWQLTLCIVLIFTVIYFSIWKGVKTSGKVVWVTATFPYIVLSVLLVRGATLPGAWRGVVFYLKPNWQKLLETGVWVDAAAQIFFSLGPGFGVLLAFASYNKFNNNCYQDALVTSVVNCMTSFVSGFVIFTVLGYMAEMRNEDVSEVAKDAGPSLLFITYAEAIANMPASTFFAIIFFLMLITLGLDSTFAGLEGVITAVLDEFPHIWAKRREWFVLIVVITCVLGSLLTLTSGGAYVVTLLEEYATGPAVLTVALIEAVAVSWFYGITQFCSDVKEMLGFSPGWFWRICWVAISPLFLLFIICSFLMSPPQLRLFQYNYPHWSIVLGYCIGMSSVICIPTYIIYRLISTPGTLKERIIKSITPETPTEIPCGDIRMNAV", "UniProt P57059, sequence (whole entry, looked up)": "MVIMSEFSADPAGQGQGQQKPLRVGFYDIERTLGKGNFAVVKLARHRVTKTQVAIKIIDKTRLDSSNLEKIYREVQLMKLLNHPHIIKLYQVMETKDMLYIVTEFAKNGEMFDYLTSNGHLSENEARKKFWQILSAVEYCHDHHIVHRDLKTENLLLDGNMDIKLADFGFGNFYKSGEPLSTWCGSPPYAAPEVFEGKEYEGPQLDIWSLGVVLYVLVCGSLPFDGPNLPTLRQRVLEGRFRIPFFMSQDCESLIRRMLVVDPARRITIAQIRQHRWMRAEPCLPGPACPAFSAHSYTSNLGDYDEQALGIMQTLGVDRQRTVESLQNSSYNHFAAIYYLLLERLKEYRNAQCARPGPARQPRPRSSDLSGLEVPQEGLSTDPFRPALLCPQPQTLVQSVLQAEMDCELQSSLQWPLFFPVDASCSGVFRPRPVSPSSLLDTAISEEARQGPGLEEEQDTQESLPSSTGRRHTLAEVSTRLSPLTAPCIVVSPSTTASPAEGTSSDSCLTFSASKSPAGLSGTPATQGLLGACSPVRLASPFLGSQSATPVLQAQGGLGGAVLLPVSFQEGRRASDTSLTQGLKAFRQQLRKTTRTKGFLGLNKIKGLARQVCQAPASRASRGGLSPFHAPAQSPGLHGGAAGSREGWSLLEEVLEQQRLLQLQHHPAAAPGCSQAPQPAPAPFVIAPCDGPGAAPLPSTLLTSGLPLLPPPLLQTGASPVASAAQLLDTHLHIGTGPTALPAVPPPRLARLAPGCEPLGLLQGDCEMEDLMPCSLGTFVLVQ", "UniProt P09884, sequence (whole entry, looked up)": "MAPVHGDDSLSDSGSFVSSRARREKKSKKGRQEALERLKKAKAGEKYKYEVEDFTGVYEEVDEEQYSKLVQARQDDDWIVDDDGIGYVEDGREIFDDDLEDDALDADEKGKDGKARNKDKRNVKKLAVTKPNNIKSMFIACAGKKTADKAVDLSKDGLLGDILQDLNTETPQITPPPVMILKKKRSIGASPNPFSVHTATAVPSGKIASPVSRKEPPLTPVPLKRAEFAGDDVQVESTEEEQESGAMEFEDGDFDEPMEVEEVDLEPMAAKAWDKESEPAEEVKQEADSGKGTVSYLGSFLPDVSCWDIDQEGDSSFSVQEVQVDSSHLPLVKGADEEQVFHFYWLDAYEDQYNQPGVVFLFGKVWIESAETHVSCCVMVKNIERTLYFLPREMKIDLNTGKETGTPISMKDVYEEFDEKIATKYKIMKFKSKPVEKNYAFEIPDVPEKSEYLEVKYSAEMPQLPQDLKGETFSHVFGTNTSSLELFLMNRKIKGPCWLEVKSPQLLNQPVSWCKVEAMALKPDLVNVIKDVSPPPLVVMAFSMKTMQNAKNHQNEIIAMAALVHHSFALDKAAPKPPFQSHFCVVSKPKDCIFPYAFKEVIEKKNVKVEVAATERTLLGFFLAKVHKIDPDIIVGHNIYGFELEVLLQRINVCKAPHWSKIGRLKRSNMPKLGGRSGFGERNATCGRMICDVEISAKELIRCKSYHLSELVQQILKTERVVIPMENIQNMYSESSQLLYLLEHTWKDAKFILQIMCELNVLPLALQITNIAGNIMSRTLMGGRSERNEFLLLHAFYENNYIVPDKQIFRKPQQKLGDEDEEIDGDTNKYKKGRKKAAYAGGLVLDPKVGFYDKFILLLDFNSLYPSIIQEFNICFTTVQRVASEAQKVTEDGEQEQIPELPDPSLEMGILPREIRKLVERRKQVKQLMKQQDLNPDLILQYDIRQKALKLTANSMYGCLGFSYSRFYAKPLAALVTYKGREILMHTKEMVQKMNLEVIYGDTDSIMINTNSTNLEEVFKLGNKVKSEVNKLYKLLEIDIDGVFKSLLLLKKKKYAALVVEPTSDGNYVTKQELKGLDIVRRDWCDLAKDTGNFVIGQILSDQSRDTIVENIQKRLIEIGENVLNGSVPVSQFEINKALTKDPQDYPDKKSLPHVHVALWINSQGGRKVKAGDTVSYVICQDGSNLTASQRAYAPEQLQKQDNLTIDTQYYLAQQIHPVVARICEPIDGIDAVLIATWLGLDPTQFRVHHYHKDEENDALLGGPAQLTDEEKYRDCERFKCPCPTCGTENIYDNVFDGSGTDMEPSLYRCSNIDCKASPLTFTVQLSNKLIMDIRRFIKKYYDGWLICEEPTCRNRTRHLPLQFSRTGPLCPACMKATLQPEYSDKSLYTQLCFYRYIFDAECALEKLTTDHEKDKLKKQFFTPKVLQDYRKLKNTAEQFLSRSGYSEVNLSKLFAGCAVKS", "UniProt P56817, sequence (whole entry, looked up)": "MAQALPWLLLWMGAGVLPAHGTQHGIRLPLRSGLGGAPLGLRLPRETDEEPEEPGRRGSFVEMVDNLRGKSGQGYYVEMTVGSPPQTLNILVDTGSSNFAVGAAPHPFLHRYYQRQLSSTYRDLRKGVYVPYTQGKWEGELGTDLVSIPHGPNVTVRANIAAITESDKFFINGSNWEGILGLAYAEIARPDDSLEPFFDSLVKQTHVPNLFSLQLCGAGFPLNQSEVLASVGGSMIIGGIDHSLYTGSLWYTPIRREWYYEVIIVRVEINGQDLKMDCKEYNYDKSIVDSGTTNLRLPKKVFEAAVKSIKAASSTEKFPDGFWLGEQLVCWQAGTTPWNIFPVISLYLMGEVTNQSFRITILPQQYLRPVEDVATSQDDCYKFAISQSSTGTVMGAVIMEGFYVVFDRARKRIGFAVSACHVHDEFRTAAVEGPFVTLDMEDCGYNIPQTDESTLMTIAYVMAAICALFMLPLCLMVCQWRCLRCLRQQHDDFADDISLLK"}
{"Compound": "CCC1(CC)CC(=O)N(C2c3cc(C(=O)NC4c5ccccc5CC4O)ccc3OC2(C)COC)C(=N)N1 (stereo not drawn)", "tested on": "Beta-secretase 1 (BACE1, Homo sapiens, UniProt P56817)", "assay": "enzyme activity, inhibitor", "endpoint": "Ki", "result": "> 5.74 µM"}
{"Compound": "CNCc1ccc(-c2cc(Cl)cc(Cl)c2)o1", "tested on": "Slc6a4", "assay": "ligand displacement, radioligand", "endpoint": "Ki", "result": "0.0905 µM"}
{"Compound": "Nc1ncc(-c2nc(N3CCOCC3)nc(N3CCN(C(=O)CCC(=O)NCCCCCCCNc4cccc5c4C(=O)N(C4CCC(=O)NC4=O)C5=O)CC3)n2)c(C(F)F)n1 (stereo not drawn)", "tested on": "PIK3CA", "assay": "ligand displacement, TR-FRET", "endpoint": "Ki", "result": "0.00184 µM"}
{"Compound": "CN1CC[C@@H](COc2cnc(C#N)cc2-c2ccn3nc(NC(=O)C4CC4)cc3c2)C1", "tested on": "Serine/threonine-protein kinase SIK1 (SIK1, Homo sapiens, UniProt P57059)", "assay": "enzyme activity, inhibitor, ADP detection", "endpoint": "Ki", "result": "0.0028 µM"}
{"Compound": "Nc1ncc(-c2nc(N3CCOCC3)nc(N3CCN(C(=O)CCC(=O)NCCCCCCCCC#Cc4cccc5c4C(=O)N(C4CCC(=O)NC4=O)C5=O)CC3)n2)c(C(F)F)n1 (stereo not drawn)", "tested on": "PIK3CA", "assay": "ligand displacement, TR-FRET", "endpoint": "Ki", "result": "0.00245 µM"}
{"Compound": "Cc1ccc(C2CCN(C3CCCCC3O)CC2)cc1 (racemic)", "tested on": "SIGMAR1", "assay": "displacement, radioligand binding", "test system": "HEK293", "conditions": "added: [3H](+)-pentazocine", "endpoint": "Ki", "result": "0.014 ± 0.004 µM"}
{"Compound": "COc1ccc(C(CNc2cccc(F)c2C#N)N(C)C)cc1 (stereo not drawn)", "tested on": "Slc6a4", "assay": "ligand displacement, radioligand", "endpoint": "Ki", "result": "0.056 µM"}
{"Compound": "O=C(CCC(=O)N1CCN(c2nc(N3CCOCC3)nc(-n3c(C(F)F)nc4ccccc43)n2)CC1)NCCCCCC(=O)Nc1cccc2c1C(=O)N(C1CCC(=O)NC1=O)C2=O (stereo not drawn)", "tested on": "PIK3CA", "assay": "ligand displacement, TR-FRET", "endpoint": "Ki", "result": "0.0194 µM"}
{"Compound": "COc1ccc(CC(CN)c2ccccc2)cc1 (stereo not drawn)", "tested on": "Slc6a4", "assay": "ligand displacement, radioligand", "endpoint": "Ki", "result": "2.3 µM"}
{"Compound": "CN1CCN(S(=O)(=O)c2cccc(-c3ccc4ncnc(Nc5ccc(OCc6cccc(F)c6)c(Cl)c5)c4c3)c2)CC1", "tested on": "Leishmania major", "assay": "intracellular amastigote growth, luciferase", "test system": "RAW264.7 macrophages", "endpoint": "EC50", "result": "1.2 µM"}
{"Compound": "Cn1ccc2c(N3CCN(CCCCOc4ccc5c(c4)NC(=O)CC5)CC3)cccc21", "tested on": "5-hydroxytryptamine receptor 2B (HTR2B, Homo sapiens, UniProt P41595)", "assay": "cell-free assay, radioligand", "endpoint": "Ki", "result": "0.092 µM"}
{"Compound": "Cc1ccc(C2CCN(C3Cc4ccccc4CC3O)CC2)cc1 (racemic)", "tested on": "SIGMAR1", "assay": "displacement, radioligand binding", "test system": "HEK293", "conditions": "added: [3H](+)-pentazocine", "endpoint": "Ki", "result": "0.0057 ± 0.0026 µM"}
{"Compound": "C[C@]12COc3ccc(OCc4cccc5ccccc45)cc3[C@H]1CCN2", "tested on": "SIGMAR1", "assay": "cell-free assay, radioligand", "endpoint": "Ki", "result": "0.0046 µM"}
{"Compound": "Brc1ccc(C2NCCn3cccc32)cc1 (stereo not drawn)", "tested on": "Slc6a4", "assay": "ligand displacement, radioligand", "endpoint": "Ki", "result": "2.3 µM"}
{"Compound": "O=C(c1cccc(-c2ccc3ncnc(Nc4ccc(OCc5cccc(F)c5)c(Cl)c4)c3c2)c1)N1CCCC1", "tested on": "Leishmania major", "assay": "intracellular amastigote growth, luciferase", "test system": "RAW264.7 macrophages", "endpoint": "EC50", "result": "18 µM"}
{"Compound": "CN1CCN(c2ccc3cnn(Cc4cccc5ccccc45)c3c2)CC1", "tested on": "5-hydroxytryptamine receptor 7, isoform 5-HT7b (HTR7, Homo sapiens, UniProt P34969)", "assay": "binding, radioligand displacement", "test system": "HEK293 membranes", "conditions": "1 h, 37 °C, 5-HT7b isoform, added: 0.6 nM [3H]-5-CT", "endpoint": "Ki", "result": "3.12 ± 0.422 µM"}
{"Compound": "OC1Cc2ccccc2CC1N1CCC(c2ccc(Br)cc2)CC1 (racemic)", "tested on": "SIGMAR1", "assay": "displacement, radioligand binding", "test system": "HEK293", "conditions": "added: [3H](+)-pentazocine", "endpoint": "Ki", "result": "0.0026 ± 0.0011 µM"}
{"Compound": "CN(C)CCN(Cc1ccccc1)Cc1cccc(Br)c1", "tested on": "Slc6a4", "assay": "ligand displacement, radioligand", "endpoint": "Ki", "result": "0.05 µM"}
{"Compound": "C[C@]12COc3ccc(OCc4ccc(C(F)(F)F)cc4)cc3[C@H]1CCN2", "tested on": "SIGMAR1", "assay": "cell-free assay, radioligand", "endpoint": "Ki", "result": "0.0024 µM"}
{"Compound": "CC(C)[C@@H]1NC(=O)[C@H](Cc2ccccc2)NC(=O)[C@H](Cc2ccc(O)cc2)NC(=O)CCSSC[C@@H](C(=O)N2CCC[C@H]2C(=O)N[C@H](CCCNC(=N)N)C(=O)NCC(N)=O)NC(=O)[C@H](CC(N)=O)NC1=O", "tested on": "Vasopressin V1a receptor (AVPR1A, Homo sapiens, UniProt P37288)", "assay": "ligand displacement, radioligand", "conditions": "cell membranes", "endpoint": "Ki", "result": "0.0165 µM"}
{"Compound": "O=C(NCCCCOP(=O)(O)OP(=O)(O)OP(=O)(O)O)OCC1c2ccccc2-c2ccccc21", "tested on": "DNA polymerase alpha catalytic subunit (POLA1, Homo sapiens, UniProt P09884)", "assay": "enzyme activity, inhibitor, radiometric", "endpoint": "Ki", "result": "112 µM"}
{"Compound": "Nc1ncc(-c2nc(N3CCOCC3)nc(N3CCN(C(=O)CCC(=O)NCCCCCCCCCCCNc4cccc5c4C(=O)N(C4CCC(=O)NC4=O)C5=O)CC3)n2)c(C(F)F)n1 (stereo not drawn)", "tested on": "PIK3CA", "assay": "ligand displacement, TR-FRET", "endpoint": "Ki", "result": "0.00399 µM"}
{"Compound": "OC[C@H]1O[C@@H](Oc2cc3c(O)cc(O)cc3[o+]c2-c2cc(O)c(O)c(O)c2)[C@H](O)[C@@H](O)[C@H]1O", "tested on": "PPO3 (Agaricus bisporus, UniProt C7FF04)", "assay": "enzyme activity, inhibitor", "endpoint": "Ki", "result": "22.4 µM"}
{"Compound": "COc1ccccc1-c1ccn2nc(NC(=O)C3CC3)cc2c1", "tested on": "Serine/threonine-protein kinase SIK3 (SIK3, Homo sapiens, UniProt Q9Y2K2)", "assay": "cell-free assay, inhibitor", "endpoint": "Ki", "result": "0.406 µM"}
{"note": "Repeated from above:"}
{"Compound": "O=C(NCCCCOP(=O)(O)OP(=O)(O)OP(=O)(O)O)OCC1c2ccccc2-c2ccccc21", "tested on": "DNA polymerase alpha catalytic subunit (POLA1, Homo sapiens, UniProt P09884)", "assay": "enzyme activity, inhibitor, radiometric", "endpoint": "Ki", "result": "112 µM"}
{"Compound": "Nc1ncc(-c2nc(N3CCOCC3)nc(N3CCN(C(=O)CCC(=O)NCCCCCCCCCCCNc4cccc5c4C(=O)N(C4CCC(=O)NC4=O)C5=O)CC3)n2)c(C(F)F)n1 (stereo not drawn)", "tested on": "PIK3CA", "assay": "ligand displacement, TR-FRET", "endpoint": "Ki", "result": "0.00399 µM"}
{"Compound": "OC[C@H]1O[C@@H](Oc2cc3c(O)cc(O)cc3[o+]c2-c2cc(O)c(O)c(O)c2)[C@H](O)[C@@H](O)[C@H]1O", "tested on": "PPO3 (Agaricus bisporus, UniProt C7FF04)", "assay": "enzyme activity, inhibitor", "endpoint": "Ki", "result": "22.4 µM"}
{"Compound": "COc1ccccc1-c1ccn2nc(NC(=O)C3CC3)cc2c1", "tested on": "Serine/threonine-protein kinase SIK3 (SIK3, Homo sapiens, UniProt Q9Y2K2)", "assay": "cell-free assay, inhibitor", "endpoint": "Ki", "result": "0.406 µM"}
